Results from different studies.
Every numbered part comes from another study and shows a few of its results, in no order.

Set 1
Target: PABPC1L2, full length, GST fusion (mouse, UniProt A0ABA7IW68)
Method: RNAcompete
Molecule type: RNA
Sample: in vitro
Concentration: 20 nM
Notes: 7-mer, probes averaged, single round
Reference: mean of 7-mers
Reading: higher = stronger binding
Residues (chain): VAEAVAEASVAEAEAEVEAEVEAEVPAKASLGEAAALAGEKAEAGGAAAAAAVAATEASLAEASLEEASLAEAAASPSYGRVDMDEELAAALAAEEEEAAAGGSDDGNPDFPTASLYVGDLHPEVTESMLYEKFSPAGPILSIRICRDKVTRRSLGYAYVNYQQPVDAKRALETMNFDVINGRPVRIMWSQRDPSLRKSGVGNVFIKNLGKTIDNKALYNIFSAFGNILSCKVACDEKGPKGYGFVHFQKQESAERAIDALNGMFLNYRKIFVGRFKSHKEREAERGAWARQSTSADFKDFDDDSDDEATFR
With `UUAGAUU` the 7-mer Z-score was -0.179.
`UGCCACU` gave a 7-mer Z-score of -0.249.
`CCAUAGA` gave a 7-mer Z-score of -0.0591.

Mixed results
IRF5 S451D/S453D/S456D/S462D full length, phosphomimetic: Interferon regulatory factor 5, full length, phosphomimetic (IRF5, Homo sapiens, UniProt Q13568-2, residues 1-514, S451D/S453D/S456D/S462D)
Fmr1 C-terminal low-complexity region: Fragile X messenger ribonucleoprotein 1, C-terminal low-complexity region (Fmr1, Mus musculus, UniProt P35922)
`GCCTAGCACTCACTTCACCTCTCTGTCACTGTGCTAGTCTTGATTCGCTTGACGCTGCTG`: “fitted relative affinity” 1.38 z-score (IRF5 S451D/S453D/S456D/S462D full length, phosphomimetic; protein-binding microarray; double-stranded DNA, one strand shown, in vitro; 940 nM top, 60-bp whole probe, together with: salmon DNA 0.4 mg/ml; reference: random background probes, higher = stronger binding).
`GGGAGUUCUACAGUCCGACGAUCCUCAAGUCCUGUGCUACACAUCGUAUGUACCGAAUCGGGGAGGGGAGGGAGGGAAAGUAUUAUGUUACGCCGUUCGGAUCUGCACUUCCAUGGAAUUCUCGGGUGUCAAGG` gave a log2 enrichment of 1.18 (Fmr1 C-terminal low-complexity region; RNA Bind-n-Seq; RNA, in vitro; 200 nM, whole 134-nt RNA, ends assumed, together with: 150 mM KCl; reference: input library, higher = stronger binding).
With `PhoQ, residues 284 288 289 292 302 303 SVTLVV` the fold induction was 15.6 (PhoP, residues 12 14 15 18 19 NYFTV (Escherichia coli, UniProt P23836); Sort-seq, item: YFP reporter; E. coli; PhoQ-PhoP variant library, together with: 10 µM Mg2+; reference: high Mg2+ state, higher = stronger signaling).
`GCCTAGCACTTAGGACTGGGTTTCGGTCAGTGCTAGGTCTTGATTCGCTTGACGCTGCTG` — result for “fitted relative affinity”: 6.44 z-score (IRF5 S451D/S453D/S456D/S462D full length, phosphomimetic; protein-binding microarray; double-stranded DNA, one strand shown, in vitro; 940 nM top, 60-bp whole probe, together with: salmon DNA 0.4 mg/ml; reference: random background probes, higher = stronger binding).
`GGGAGUUCUACAGUCCGACGAUCCAAGUCCUGUGCUACACAUCGUAUGUACCGAAUCGGUUUUUGGUUUUUUUGGUGGAAAGUAUUAUGUUACGCCGUUCGGAUCUGCACUUCUGGAAUUCUCGGGUGUCAAGG` gave a log2 enrichment of -0.594 (Fmr1 C-terminal low-complexity region; RNA Bind-n-Seq; RNA, in vitro; 200 nM, whole 134-nt RNA, ends assumed, together with: 150 mM KCl; reference: input library, higher = stronger binding).
